Experimental data of several laboratories.
Parts stem from different laboratories: compare values within a part only.
Sequence of UniProt P07332 (whole entry, looked up): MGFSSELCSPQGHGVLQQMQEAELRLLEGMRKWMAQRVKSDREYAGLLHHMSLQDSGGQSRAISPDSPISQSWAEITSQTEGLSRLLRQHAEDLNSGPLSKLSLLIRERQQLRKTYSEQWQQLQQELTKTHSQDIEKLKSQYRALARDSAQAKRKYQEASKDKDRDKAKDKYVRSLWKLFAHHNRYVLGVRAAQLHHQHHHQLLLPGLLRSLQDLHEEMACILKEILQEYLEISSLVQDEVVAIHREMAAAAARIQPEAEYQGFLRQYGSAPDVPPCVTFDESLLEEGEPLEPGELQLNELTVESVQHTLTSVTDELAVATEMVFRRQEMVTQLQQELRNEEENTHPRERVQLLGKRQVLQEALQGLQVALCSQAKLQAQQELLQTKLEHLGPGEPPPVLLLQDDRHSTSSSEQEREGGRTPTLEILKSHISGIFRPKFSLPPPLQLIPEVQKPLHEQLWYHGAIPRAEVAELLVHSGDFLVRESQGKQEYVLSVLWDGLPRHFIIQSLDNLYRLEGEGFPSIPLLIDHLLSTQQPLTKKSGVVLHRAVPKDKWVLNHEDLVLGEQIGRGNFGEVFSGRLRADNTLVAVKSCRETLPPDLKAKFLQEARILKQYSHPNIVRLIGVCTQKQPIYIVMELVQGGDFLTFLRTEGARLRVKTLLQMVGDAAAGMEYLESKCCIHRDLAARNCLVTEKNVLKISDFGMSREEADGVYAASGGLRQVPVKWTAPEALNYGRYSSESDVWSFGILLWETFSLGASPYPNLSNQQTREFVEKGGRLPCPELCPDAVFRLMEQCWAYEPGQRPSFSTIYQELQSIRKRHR
Sequence of UniProt Q96RR4 (whole entry, looked up): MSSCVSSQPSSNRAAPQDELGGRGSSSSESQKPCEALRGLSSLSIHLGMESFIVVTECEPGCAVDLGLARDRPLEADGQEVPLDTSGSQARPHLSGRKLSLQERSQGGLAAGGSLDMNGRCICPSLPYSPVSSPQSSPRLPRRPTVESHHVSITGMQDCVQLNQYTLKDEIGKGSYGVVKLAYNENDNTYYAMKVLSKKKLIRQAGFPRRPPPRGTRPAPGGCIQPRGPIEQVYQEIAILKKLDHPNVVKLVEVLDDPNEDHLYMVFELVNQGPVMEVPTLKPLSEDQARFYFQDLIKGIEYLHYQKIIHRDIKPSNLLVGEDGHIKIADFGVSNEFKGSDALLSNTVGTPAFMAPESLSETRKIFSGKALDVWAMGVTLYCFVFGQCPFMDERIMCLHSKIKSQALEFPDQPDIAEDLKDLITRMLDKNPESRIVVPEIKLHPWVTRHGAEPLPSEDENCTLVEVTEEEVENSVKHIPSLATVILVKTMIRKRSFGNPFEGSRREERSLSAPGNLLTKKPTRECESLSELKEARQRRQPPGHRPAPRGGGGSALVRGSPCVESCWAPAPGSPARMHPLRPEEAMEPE
Sequence of UniProt P08922 (whole entry, looked up): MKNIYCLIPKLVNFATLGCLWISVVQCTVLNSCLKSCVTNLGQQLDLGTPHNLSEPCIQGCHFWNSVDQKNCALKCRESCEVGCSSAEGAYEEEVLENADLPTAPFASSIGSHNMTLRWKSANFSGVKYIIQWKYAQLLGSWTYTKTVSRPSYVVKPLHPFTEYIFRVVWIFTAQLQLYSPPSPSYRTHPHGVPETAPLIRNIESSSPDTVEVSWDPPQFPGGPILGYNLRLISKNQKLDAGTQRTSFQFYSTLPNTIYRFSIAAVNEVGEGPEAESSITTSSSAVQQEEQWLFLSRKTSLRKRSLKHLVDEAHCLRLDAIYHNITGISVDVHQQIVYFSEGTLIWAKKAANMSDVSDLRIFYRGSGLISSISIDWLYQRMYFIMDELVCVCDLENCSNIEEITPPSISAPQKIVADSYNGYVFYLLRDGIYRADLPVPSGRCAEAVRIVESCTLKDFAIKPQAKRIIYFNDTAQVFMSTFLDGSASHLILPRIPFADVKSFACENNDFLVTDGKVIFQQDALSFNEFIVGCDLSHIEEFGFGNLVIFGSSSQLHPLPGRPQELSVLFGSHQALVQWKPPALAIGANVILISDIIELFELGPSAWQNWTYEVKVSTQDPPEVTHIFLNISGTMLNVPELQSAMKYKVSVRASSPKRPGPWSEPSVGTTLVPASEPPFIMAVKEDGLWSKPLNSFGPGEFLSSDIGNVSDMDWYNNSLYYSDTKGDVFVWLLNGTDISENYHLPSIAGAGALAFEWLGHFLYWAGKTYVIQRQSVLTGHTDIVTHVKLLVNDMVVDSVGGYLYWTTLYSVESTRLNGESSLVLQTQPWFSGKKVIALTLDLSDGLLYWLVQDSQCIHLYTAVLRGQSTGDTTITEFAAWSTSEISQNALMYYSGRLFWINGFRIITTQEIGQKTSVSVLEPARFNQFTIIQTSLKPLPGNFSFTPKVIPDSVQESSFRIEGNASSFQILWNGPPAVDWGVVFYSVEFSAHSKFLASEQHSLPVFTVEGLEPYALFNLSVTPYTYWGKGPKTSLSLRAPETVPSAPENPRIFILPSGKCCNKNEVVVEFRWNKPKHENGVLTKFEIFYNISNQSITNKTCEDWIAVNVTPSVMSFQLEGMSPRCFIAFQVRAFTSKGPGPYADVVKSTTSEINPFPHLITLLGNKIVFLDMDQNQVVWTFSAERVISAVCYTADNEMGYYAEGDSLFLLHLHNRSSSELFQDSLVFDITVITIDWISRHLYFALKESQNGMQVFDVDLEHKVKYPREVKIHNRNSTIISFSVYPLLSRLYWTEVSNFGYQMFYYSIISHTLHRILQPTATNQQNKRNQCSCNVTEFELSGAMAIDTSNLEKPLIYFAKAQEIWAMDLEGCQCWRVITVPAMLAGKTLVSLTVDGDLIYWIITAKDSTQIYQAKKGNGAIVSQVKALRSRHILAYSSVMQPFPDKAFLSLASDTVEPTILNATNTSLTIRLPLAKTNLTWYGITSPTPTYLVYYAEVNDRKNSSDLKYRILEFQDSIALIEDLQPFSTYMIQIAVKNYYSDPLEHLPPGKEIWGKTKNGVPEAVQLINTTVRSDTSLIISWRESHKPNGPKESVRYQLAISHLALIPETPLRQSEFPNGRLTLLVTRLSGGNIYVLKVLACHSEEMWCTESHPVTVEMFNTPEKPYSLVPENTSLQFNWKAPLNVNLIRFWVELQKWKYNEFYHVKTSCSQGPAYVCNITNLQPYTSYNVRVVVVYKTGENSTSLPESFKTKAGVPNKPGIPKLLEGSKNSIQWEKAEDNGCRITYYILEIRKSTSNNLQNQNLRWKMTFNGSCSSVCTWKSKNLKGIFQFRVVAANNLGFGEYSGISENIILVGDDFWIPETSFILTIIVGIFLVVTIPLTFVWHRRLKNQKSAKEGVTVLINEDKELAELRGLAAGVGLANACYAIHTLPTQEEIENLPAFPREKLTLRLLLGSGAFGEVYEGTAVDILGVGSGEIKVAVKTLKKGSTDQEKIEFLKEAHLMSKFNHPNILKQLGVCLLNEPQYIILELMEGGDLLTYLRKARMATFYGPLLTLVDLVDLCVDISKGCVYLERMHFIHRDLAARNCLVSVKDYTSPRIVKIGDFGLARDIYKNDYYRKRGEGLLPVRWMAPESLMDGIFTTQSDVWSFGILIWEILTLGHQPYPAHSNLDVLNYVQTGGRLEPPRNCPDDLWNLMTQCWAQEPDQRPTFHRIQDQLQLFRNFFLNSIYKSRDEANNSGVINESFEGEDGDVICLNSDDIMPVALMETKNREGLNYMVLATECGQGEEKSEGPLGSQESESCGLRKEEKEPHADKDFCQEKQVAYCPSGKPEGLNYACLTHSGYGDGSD

Study 1 — observed: enzyme activity; action: inhibitor; tested at: 0.5 µM; relative to: control
Target: Ephrin type-A receptor 2 (EPHA2, Homo sapiens, UniProt P29317)
Sequence of UniProt P29317 (whole entry, looked up): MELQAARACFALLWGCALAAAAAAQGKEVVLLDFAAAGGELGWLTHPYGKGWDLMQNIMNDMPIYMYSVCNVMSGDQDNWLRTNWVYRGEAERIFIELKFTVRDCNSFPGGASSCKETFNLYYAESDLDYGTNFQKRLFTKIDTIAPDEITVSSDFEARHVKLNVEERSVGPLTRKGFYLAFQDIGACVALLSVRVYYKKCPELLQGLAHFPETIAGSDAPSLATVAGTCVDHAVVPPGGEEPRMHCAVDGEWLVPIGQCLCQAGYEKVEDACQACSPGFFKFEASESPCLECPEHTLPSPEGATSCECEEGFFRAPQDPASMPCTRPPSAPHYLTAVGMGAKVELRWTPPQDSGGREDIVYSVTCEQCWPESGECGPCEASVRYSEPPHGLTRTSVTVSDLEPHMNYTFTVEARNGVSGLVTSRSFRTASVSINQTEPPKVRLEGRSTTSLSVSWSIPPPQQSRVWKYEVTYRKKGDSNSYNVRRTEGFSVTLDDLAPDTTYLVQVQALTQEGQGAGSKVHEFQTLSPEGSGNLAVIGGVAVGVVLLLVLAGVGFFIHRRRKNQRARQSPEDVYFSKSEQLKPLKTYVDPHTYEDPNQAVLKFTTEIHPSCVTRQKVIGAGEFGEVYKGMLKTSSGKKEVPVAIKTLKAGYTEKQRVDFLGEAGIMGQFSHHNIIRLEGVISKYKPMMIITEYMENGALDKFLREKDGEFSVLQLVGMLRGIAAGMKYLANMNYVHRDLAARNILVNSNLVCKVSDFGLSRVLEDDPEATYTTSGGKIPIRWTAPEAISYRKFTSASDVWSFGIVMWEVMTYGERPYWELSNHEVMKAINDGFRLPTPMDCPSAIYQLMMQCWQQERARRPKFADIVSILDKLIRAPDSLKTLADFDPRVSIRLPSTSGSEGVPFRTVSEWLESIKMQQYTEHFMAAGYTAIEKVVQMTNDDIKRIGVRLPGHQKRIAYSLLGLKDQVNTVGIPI
SMILES | remaining activity [%]
CO[C@H]1C[C@@H]2CC[C@@H](C)[C@@](O)(O2)C(=O)C(=O)N2CCCC[C@H]2C(=O)O[C@H]([C@H](C)C[C@@H]2CC[C@@H](O)[C@H](OC)C2)CC(=O)[C@H](C)/C=C(\C)[C@@H](O)[C@@H](OC)C(=O)[C@H](C)C[C@H](C)/C=C/C=C/C=C/1C | 107
N#CC(C#N)=C(N)/C(C#N)=C/c1ccc(O)cc1 | 100
Oc1ccc(-c2nc(-c3ccncc3)c(-c3ccc(F)cc3)[nH]2)cc1 | 91.3
COc1ccc(CNC(=O)Nc2ncc([N+](=O)[O-])s2)cc1 | 100
COc1cc2nccc(Oc3ccc(NC(=S)NC(=O)c4ccccc4C)cc3)c2cc1OC | 86.9
CCOC(=O)c1c(C)[nH]c(/C=C2\C(=O)Nc3ccccc32)c1C | 105
Cc1cccc(-c2[nH]c(C(C)(C)C)nc2-c2ccc3c(c2)OCO3)n1 | 99.2
O=C(CCCc1ccc(-c2ccccc2F)cc1)Nc1ccc(O)cc1 | 101
CNC(=O)c1cc(Oc2ccc(NC(=O)Nc3ccc(Cl)c(C(F)(F)F)c3)cc2)ccn1 | 83.8
Cc1ccc(NC(=O)c2ccc(CN3CCN(C)CC3)cc2)cc1Nc1nc(-c2cccnc2)cs1 | 91.2

Study 2 — target: Sox-I, HMG box (Salpingoeca helianthica); method: Spec-seq; form: double-stranded DNA, one strand shown; medium: in vitro; tested at: not given; notes: whole probe, mean of replicates; relative to: not given; direction: lower = stronger binding; shared flanks, not repeated: GAGTCGTCTCGTCAGCAC … CCGTAGAGCACTCAGGTC
Construct (chain): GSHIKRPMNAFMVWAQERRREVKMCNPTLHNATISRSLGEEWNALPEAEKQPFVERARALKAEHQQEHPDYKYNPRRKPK
Strand | relative binding energy [ln ratio]
GACCGTT | 0.707
TATCGTT | 0.0927
CATGTTC | 1.1
CGATGTT | 0.151
CATACCT | 0.0953
CATAGTA | -0.257
CATTTAT | 0.358
TAAGGTT | 0.765

Study 3 — method: aptamer microarray, sandwich; form: DNA with 2'F-ANA; medium: in vitro; tested at: 200 nM; with: Cy3 exosite-II aptamer, 400 nM; direction: higher = stronger binding; strand: GGTTGGTGTGGTTGG
Target: Prothrombin, mature alpha-thrombin (F2, Homo sapiens, UniProt P00734)
Notes: whole 15-mer aptamer, many near background
Modification | mean fluorescence intensity [a.u.]
2'F-ANA at 2 4 6 11 12 14 | 106
2'F-ANA at 1 7 8 10 11 14 | 48.2
2'F-ANA at 4 5 7 9 10 14 | 47.6
2'F-ANA at 1 5 7 9 11 14 | 48.6
2'F-ANA at 2 3 4 7 8 9 11 | 613
2'F-ANA at 2 12 15 | 784
2'F-ANA at 4 5 6 8 9 10 12 14 | 41.5
2'F-ANA at 1 8 9 10 13 | 53.7

Study 4 — observed: cell-free assay; method: competition with immobilised ligand; tested at: 1 µM
Structure (SMILES): COc1ccc2c(c1)O[C@@H](c1ccc(OC)c(OC)c1)C[C@H]2NC(=O)C1(c2ccc3c(c2)OC(F)(F)O3)CC1
target | remaining binding
Proto-oncogene tyrosine-protein kinase ROS (ROS1, Homo sapiens, UniProt P08922) | 97%
Calcium/calmodulin-dependent protein kinase kinase 2 (CAMKK2, Homo sapiens, UniProt Q96RR4) | 96%
Phosphatidylinositol 4,5-bisphosphate 3-kinase catalytic subunit alpha isoform (PIK3CA, Homo sapiens, UniProt P42336, E542K) | 79%
Tyrosine-protein kinase ABL1, phosphorylated (ABL1, Homo sapiens, UniProt P00519, T315I) | 82%
Tyrosine-protein kinase Fes/Fps (FES, Homo sapiens, UniProt P07332) | 93%

Repeated from above (study 2):
Strand | relative binding energy [ln ratio]
TATCGTT | 0.0927
CATAGTA | -0.257
CATTTAT | 0.358
CATACCT | 0.0953
